Measured values of several laboratories.
Numbered parts are unrelated; each lists some results of a single study.

Study 1 — method: protein-binding microarray; molecule type: double-stranded DNA, one strand shown; matrix: in vitro; tested at: not given; reading: higher = stronger binding
Target: Transcriptional repressor CTCF (CTCF, Homo sapiens, UniProt P49711, residues 1-727, full length assumed)
Notes: k-mer, scored over probes, only values ≥0.25
Target sequence (chain): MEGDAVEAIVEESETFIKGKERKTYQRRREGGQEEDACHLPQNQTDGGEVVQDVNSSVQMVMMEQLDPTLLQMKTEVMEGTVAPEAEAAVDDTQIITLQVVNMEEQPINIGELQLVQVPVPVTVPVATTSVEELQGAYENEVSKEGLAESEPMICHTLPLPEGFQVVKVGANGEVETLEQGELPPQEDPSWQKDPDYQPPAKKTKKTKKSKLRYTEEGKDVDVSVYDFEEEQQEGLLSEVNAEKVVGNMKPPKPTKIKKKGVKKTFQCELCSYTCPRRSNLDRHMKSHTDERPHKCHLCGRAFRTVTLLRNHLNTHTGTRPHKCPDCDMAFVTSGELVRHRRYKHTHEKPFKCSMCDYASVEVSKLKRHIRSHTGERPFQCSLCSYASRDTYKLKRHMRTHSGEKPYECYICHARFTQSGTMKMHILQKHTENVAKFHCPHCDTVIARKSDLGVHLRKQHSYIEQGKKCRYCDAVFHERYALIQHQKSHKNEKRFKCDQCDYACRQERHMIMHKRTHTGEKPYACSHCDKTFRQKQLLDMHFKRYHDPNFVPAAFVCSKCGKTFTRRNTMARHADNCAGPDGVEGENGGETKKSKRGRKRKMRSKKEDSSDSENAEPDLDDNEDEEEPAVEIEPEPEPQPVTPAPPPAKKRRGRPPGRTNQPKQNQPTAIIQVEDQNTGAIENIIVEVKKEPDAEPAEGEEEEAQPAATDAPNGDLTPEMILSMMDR
| Oligonucleotide | E-score |
| --- | --- |
| AATGCGCA | 0.458 |
| GGGTAAAA | 0.318 |
| ATATTCAT | 0.261 |
| CAATTTAA | 0.303 |
| ATGTTAAC | 0.281 |
| GTGCGCCA | 0.346 |
| AACATAAA | 0.301 |
| ATTAACGA | 0.266 |
| TATGTGAA | 0.358 |
| AGTAACAA | 0.278 |
| CATATAAA | 0.364 |
| AATGCGCT | 0.269 |
| ACATATTA | 0.268 |
| AATATATA | 0.321 |
| TAGTGCAA | 0.298 |
| AAAGTATC | 0.279 |
| TAATTTAA | 0.291 |
| GTACTGCA | 0.25 |
| AATGTTTG | 0.271 |
| ATATGTGA | 0.361 |
| TATACATA | 0.287 |
| AGAGTTAA | 0.264 |
| GCCCCCTA | 0.43 |
| TAAATTAA | 0.331 |
| ACAGGTAT | 0.267 |

Study 2 — method: aptamer microarray, sandwich; molecule type: DNA with 2'F-ANA; matrix: in vitro; tested at: 200 nM; together with: Cy3 exosite-II aptamer, 400 nM; reading: higher = stronger binding; oligonucleotide: GGTTGGTGTGGTTGG
Target: Prothrombin, mature alpha-thrombin (F2, Homo sapiens, UniProt P00734)
Notes: whole 15-mer aptamer, many near background
| Modification | mean fluorescence intensity |
| --- | --- |
| 2'F-ANA at 4 5 12 15 | 153 a.u. |
| 2'F-ANA at 2 3 4 6 7 8 10 11 12 13 14 15 | 135 a.u. |
| 2'F-ANA at 2 5 8 10 12 | 51.6 a.u. |
| 2'F-ANA at 1 10 14 15 | 42.5 a.u. |
| 2'F-ANA at 3 6 9 10 12 14 | 404 a.u. |
| 2'F-ANA at 1 2 4 5 10 13 14 15 | 48.3 a.u. |
| 2'F-ANA at 1 2 5 9 12 | 115 a.u. |
| 2'F-ANA at 1 3 4 5 6 10 11 12 14 15 | 47.6 a.u. |
| 2'F-ANA at 1 2 4 7 9 12 13 14 15 | 61 a.u. |
| 2'F-ANA at 2 3 4 5 8 10 11 12 13 15 | 74.3 a.u. |
| 2'F-ANA at 2 3 4 6 8 10 11 12 13 15 | 176 a.u. |
| 2'F-ANA at 2 3 4 5 8 10 12 14 15 | 46.5 a.u. |
| 2'F-ANA at 1 2 3 4 5 11 12 13 | 71.7 a.u. |
| 2'F-ANA at 1 3 6 8 14 15 | 148 a.u. |
| 2'F-ANA at 2 3 6 7 12 13 15 | 811 a.u. |
| 2'F-ANA at 2 3 6 11 15 | 599 a.u. |
| 2'F-ANA at 1 5 8 9 10 12 13 14 | 40.4 a.u. |
| 2'F-ANA at 4 10 11 14 15 | 62.1 a.u. |

Study 3 — method: universal PBM; molecule type: double-stranded DNA, one strand shown; matrix: in vitro; tested at: 600 nM; reading: higher = stronger binding
Target: Sal-like protein 4, full length isoform A (SALL4, Homo sapiens, UniProt Q9UJQ4, residues 1-1053)
Chain of UniProt Q9UJQ4 (whole entry, looked up): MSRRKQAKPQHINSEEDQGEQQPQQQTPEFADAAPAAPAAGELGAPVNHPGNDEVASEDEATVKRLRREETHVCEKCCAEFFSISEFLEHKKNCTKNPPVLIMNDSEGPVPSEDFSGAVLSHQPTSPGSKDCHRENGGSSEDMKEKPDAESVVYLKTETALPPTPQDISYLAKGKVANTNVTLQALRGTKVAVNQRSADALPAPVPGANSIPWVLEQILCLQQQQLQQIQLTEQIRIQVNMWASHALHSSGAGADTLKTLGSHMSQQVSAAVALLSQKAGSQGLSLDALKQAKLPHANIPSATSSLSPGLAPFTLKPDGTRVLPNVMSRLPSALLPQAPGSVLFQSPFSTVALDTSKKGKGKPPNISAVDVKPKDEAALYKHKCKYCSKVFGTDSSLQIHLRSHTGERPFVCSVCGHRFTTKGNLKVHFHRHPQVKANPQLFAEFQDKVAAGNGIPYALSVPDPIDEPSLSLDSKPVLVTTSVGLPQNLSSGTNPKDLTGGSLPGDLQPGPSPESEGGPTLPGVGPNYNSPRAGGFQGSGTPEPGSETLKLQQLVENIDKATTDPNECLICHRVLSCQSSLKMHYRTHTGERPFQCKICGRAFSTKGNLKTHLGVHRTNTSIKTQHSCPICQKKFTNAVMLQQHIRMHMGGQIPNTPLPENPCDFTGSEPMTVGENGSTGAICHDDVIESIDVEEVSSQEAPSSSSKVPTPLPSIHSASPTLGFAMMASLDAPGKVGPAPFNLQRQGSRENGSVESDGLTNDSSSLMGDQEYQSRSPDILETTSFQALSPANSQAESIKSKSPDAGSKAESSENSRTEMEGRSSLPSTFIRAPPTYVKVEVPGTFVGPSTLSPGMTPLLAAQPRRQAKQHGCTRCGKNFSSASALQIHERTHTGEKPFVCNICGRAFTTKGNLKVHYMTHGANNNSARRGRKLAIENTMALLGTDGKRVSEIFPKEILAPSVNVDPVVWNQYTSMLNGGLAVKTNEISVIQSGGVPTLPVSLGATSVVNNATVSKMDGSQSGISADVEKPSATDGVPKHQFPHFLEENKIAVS
Notes: 8-mer, flanks averaged, mean of replicates
| Oligonucleotide | E-score |
| --- | --- |
| AAGTGTAA | 0.125 |
| ATACTGCA | 0.125 |
| CTATAAAC | 0.286 |
| CTTTCATC | -0.0413 |
| ATTGCTGG | 0.0642 |
| GCGGGGGA | -0.24 |
| GCATTGAC | 0.102 |
| ACAAACAA | 0.173 |
| CATGAACA | 0.17 |
| GCAGCCTA | -0.11 |
| CACTCTGG | -0.142 |
| ACAATCTG | 0.0378 |
| CGACGTGC | -0.167 |
| ACATGGGA | -0.0163 |
| GAGTGTCA | -0.00483 |
| GCTATGAC | 0.15 |
| CACTTCGG | -0.137 |
| CTCCACAA | -0.0202 |
| ATAGAAGC | 0.188 |
| ACTAAAAA | 0.281 |
| ACTGGTTC | -0.104 |
| CTAAGTCA | 0.0705 |
| ATTTTAGG | 0.231 |
| CGTACAGA | 0.0318 |
| ATGGTTTC | 0.148 |

Study 4 — method: RNA Bind-n-Seq; molecule type: RNA; matrix: in vitro; tested at: 365 nM; baseline: no-protein control; reading: higher = stronger binding
Target: RNA binding protein fox-1 homolog 2, RRM domain, GST-SBP tag (RBFOX2, Homo sapiens, UniProt O43251-10, residues 100-194)
Notes: natural RNA segment, single round, ends assumed
Target sequence (chain): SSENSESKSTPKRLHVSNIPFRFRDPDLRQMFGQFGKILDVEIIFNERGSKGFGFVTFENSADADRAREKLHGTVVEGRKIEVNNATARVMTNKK
| Oligonucleotide | RBNS enrichment (R) |
| --- | --- |
| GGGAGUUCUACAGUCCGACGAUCUCUUCAUCCUGGGGGCUCUGUUACACUAAUUUGAAUAAACUCUCCCCUUUCUUUGCAACUUCCCAGCAACAAUAAUGAUUUUCUUGCCAGGCCGUCUCUUGCUCCCUAAUUGGAAUUCUCGGGUGCCAA | 1.02 |
| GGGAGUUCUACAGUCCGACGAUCCUGCAACCAUUAUCUUUGUUCUUGAGUUCAUCAUGCAUUUAAAAUGAGAUGCAAGAGCAUUUAGCAUACCAUGUAAAUAUGGACCUUUUAAAAUUAAAAUACUAUUGGAAUGGAAUUCUCGGGUGCCAA | 0.627 |
| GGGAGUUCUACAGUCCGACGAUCAAGCCCUGCCUCUGGGCAACUCGCUCAACUCUUGUCCACUAUUAGCUGUGGGCAGUGGAGGCAGAUAGCACUUCUGAGGGAGACUCAUUAAAGCAUUGGCUUUGCUACCAUGGAAUUCUCGGGUGCCAA | 0.392 |
| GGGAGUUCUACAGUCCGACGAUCUUCAAGAGACUCGUAGAUGACUUUGCCUCCACAGCCGAUUUCCUCAUCAUUUACAUUGAAGAAGCUCACGCCACAGAUGGCUGGGCUUUUAAGAACAACGUGGACAUCCGUGGAAUUCUCGGGUGCCAA | 0.276 |
| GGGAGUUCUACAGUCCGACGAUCGCAAAUGCUGAACAAGGAGACAGACACACACUAAUCCUCAGCACAGAGCUGGAAAGCUCAUUUCUGGAAUGUUCUAUUUGAGAAUUGCCAUUUCUGGGGUUUGUCUGUUCUGGAAUUCUCGGGUGCCAA | 0.459 |
| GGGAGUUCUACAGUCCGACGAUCGUCAGCCCAUAAGCAAAGUCAAAUAACCCACGUGAGGACUGCUUUGUGUGUCUAACUCUCAGUUAUAAGCAUUCUGACCAGUGUUUAAACGUGUAAAUAAGAACACACAUUGGAAUUCUCGGGUGCCAA | 0.478 |
| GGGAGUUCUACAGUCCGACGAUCAAUUAGAUUCUAAAACACAAAUCACAAGAACGUUUGAUAUUGAAGUGUCUGGCUUUAACAUGUGAUUCCACAAGAGUAGAAGCAAGAAAGGUAUAUACUUUUAGGAGCCUUGGAAUUCUCGGGUGCCAA | 0.59 |
| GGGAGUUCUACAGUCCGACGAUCGCCCAGCGCCACGGGCCAGGAAGUACAAGUGUGGCCUGCCCCAGCCGUGUCCUGAGGAGCACCUGGCCUUCCGCGUGGUCAGCGGGGCCGCCAACGUCAUUGGGCCCAAGUGGAAUUCUCGGGUGCCAA | 0.975 |
| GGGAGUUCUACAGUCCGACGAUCGCACGGCUCUGCAGGCGUUGAAUAUUUAAAAGCAUCUAUCUAAGAAAGGCUGUGUAGUAGAACCAGAGGCGCCUUCUUGCUCUUGUUUUAUGAUCAGGGUGGAAUGUGCCUGGAAUUCUCGGGUGCCAA | 0.892 |
| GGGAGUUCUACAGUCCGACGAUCUGUCAGUGGAAACCCCACUUCUGCCCGGCCCUUGAGCUUCUUGCCCACUGUCUCCCCAUCCUUCCACCUACUUGUGGCGAUCUGAGUACUCUACUCUUGCUCAAGAAGUAUGGAAUUCUCGGGUGCCAA | 0.526 |
| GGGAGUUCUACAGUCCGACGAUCCAGAGUGCCUAAGAGAAACCCUUGCACCUGGGAGCGCUGCUUGGCUCUAUCUCUACAACAUUUAAUGAAUUUCUUGUAAACCACUUUGAGAUACAUUGUUUUGGAAAUUCUGGAAUUCUCGGGUGCCAA | 0.551 |
| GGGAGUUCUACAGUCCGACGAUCUGUGGCUGACCUGGGCUGCUGGUUCCGUUGACUAGGGUCAUCUUGAUCUCUGCAGUUUGCUCCAGCUACCAGUUUCUUUAGGCAGCUCUUUGUCCUCCCUCUGCCCAGAUUGGAAUUCUCGGGUGCCAA | 0.372 |

Some of these lines once more (study 2):
| Modification | mean fluorescence intensity |
| --- | --- |
| 2'F-ANA at 3 6 9 10 12 14 | 404 a.u. |
| 2'F-ANA at 1 2 4 5 10 13 14 15 | 48.3 a.u. |
| 2'F-ANA at 1 2 5 9 12 | 115 a.u. |
| 2'F-ANA at 1 3 4 5 6 10 11 12 14 15 | 47.6 a.u. |
| 2'F-ANA at 1 2 4 7 9 12 13 14 15 | 61 a.u. |
| 2'F-ANA at 2 3 4 5 8 10 11 12 13 15 | 74.3 a.u. |
| 2'F-ANA at 2 3 4 6 8 10 11 12 13 15 | 176 a.u. |
| 2'F-ANA at 2 3 4 5 8 10 12 14 15 | 46.5 a.u. |
| 2'F-ANA at 1 2 3 4 5 11 12 13 | 71.7 a.u. |
| 2'F-ANA at 1 3 6 8 14 15 | 148 a.u. |
| 2'F-ANA at 2 3 6 7 12 13 15 | 811 a.u. |
